Results collected from several papers.
Each line is one published result; not all experiments were run side by side.
Organism: Enterococcus faecalis

For CN[C@H](CC(C)C)C(=O)N[C@H]1C(=O)N[C@@H](CC(N)=O)C(=O)N[C@H]2C(=O)NC3C(=O)N[C@H](C(=O)N[C@H](C(=O)NCCC[N+](C)(C)C)c4cc(O)cc(O)c4-c4cc3ccc4O)[C@H](O)c3ccc(c(Cl)c3)Oc3cc2cc(c3OC2OC(CO)C(O)[C@H](O)[C@@H]2O[C@H]2CC(C)(NCc3ccc(-c4ccc(Cl)cc4)cc3)[C@H](O)[C@H](C)O2)Oc2ccc(cc2Cl)[C@H]1O (stereo partly shown), the MIC was 1 µg/mL (BM4166, VanA vancomycin-resistant).
The MIC of CCCCCCCC/C=C\CCCCCCCC(=O)NS(=O)(=O)NCCC is reported as > 200 µg/mL (ATCC 33186).
For CCCCCC(=O)N[C@@H](CCCNC(=N)N)C(=O)N[C@@H](CCCNC(=N)N)C(=O)N[C@@H](CCCNC(=N)N)C(=O)N[C@@H](CCCNC(=N)N)C(=O)N[C@H](C(=O)N[C@@H](CC(C)C)C(=O)N[C@H](C(=O)N[C@@H](CCCCN)C(=O)N[C@@H](CCCCN)C(=O)N[C@H](C(=O)N[C@@H](CC(C)C)C(=O)N[C@@H](CCCCN)C(=O)N[C@@H](CC(C)C)C(=O)N[C@@H](CCCCN)C(=O)N[C@@H](CO)C(=O)N[C@@H](CO)C(=O)N[C@@H](C)C(=O)N[C@@H](Cc1ccc(O)cc1)C(N)=O)C(C)C)[C@@H](C)CC)[C@@H](C)CC, the MIC was 64 µM (broth microdilution; ATCC 29212; highest value reported).
CN(C)[C@@H]1C(O)=C(C(N)=O)C(=O)[C@@]2(O)C(O)=C3C(=O)c4c(O)c(NC(=O)CNC(C)(C)C)nc(Cl)c4C[C@H]3C[C@@H]12.Cl.Cl.Cl has an MIC of > 32 µg/mL (tet(M)-carrying).
For CC[C@H](C)[C@H](NC(=O)[C@H](CCCCN)NC(=O)[C@@H](NC(=O)[C@H](Cc1ccc(O)cc1)NC(=O)[C@H](CCCCN)NC(=O)[C@H](CCCCN)NC(=O)CNC(=O)[C@H](CCCCN)NC(=O)[C@@H](NC(=O)[C@H](C)NC(=O)[C@H](CC(C)C)NC(=O)[C@H](Cc1c[nH]c2ccccc12)NC(=O)CNC(=O)[C@@H](NC(=O)[C@H](Cc1ccccc1)NC(=O)[C@H](CCCCN)NC(=O)[C@H](CC(C)C)NC(=O)[C@H](Cc1ccccc1)NC(=O)[C@H](C)NC(=O)CNC(=O)[C@@H](N)CCSC)C(C)C)[C@@H](C)O)C(C)C)C(=O)N[C@@H](C)C(=O)N[C@@H](Cc1c[nH]c2ccccc12)C(=O)N[C@@H](CC(=O)O)C(=O)N[C@@H](Cc1c[nH]cn1)C(=O)N[C@@H](CCCCN)C(=O)NCC(=O)N[C@H](C(=O)N[C@H](C(=O)N[C@@H](CCSC)C(=O)N[C@@H](CCCCN)C(=O)N[C@@H](Cc1c[nH]c2ccccc12)C(=O)N[C@@H](CC(C)C)C(=O)N[C@@H](CC(N)=O)C(=O)N[C@@H](C)C(=O)NCC(=O)N[C@@H](CCC(N)=O)C(=O)N[C@H](C(=O)N[C@@H](Cc1ccccc1)C(=O)N[C@H](C(=O)N[C@@H](Cc1c[nH]c2ccccc12)C(=O)N[C@H](C(=O)N[C@@H](Cc1ccc(O)cc1)C(=O)N[C@@H](CCC(=O)O)C(=O)N[C@@H](CCC(N)=O)C(=O)N[C@H](C(=O)N[C@@H](CCCCN)C(=O)N[C@@H](CCCCN)C(=O)N[C@@H](CC(C)C)C(=O)N[C@@H](Cc1c[nH]c2ccccc12)C(=O)N[C@H](C(=O)O)[C@@H](C)O)[C@@H](C)CC)C(C)C)[C@@H](C)O)[C@@H](C)O)[C@@H](C)CC)[C@@H](C)O, the MIC was 3.9 µg/mL (broth microdilution; 37 °C, MRS medium).
The MIC of NCCCC1CN(c2ccc3c(n2)NC(=O)CO3)C(=O)O1 (stereo not shown) is reported as 160 µg/mL (ATCC 29212).
CN(C)c1ncc(O)c2c1C[C@H]1C[C@H]3[C@H](N(C)C)C(O)=C(C(N)=O)C(=O)[C@@]3(O)C(O)=C1C2=O.Cl.Cl gave an MIC of 32 µg/mL (tet(M)-carrying).
The MIC of CC[C@H](C)[C@H](NC(=O)[C@H](CC(C)C)NC(=O)[C@@H](NC(=O)[C@H](Cc1ccc(O)cc1)NC(=O)[C@H](CO)NC(=O)CNC(=O)[C@H](CCCNC(=N)N)NC(=O)[C@H](CCCNC(=N)N)NC(=O)[C@H](CCCNC(=N)N)NC(=O)[C@@H]1CCCN1C(=O)[C@H](CCCCN)NC(=O)[C@H](Cc1c[nH]c2ccccc12)NC(=O)[C@@H](NC(=O)[C@H](Cc1c[nH]c2ccccc12)NC(=O)[C@H](CCCCN)NC(=O)[C@H](CCCNC(=N)N)NC(=O)[C@H](CCCNC(=N)N)NC(=O)[C@@H]1CCCN1C(=O)[C@H](CO)NC(=O)[C@H](CCCNC(=N)N)NC(=O)[C@H](CO)NC(=O)[C@H](CCCNC(=N)N)NC(=O)[C@@H](N)CCCNC(=N)N)[C@@H](C)O)[C@@H](C)O)C(=O)N[C@@H](CO)C(=O)N[C@@H](CCC(N)=O)C(=O)NCC(=O)NCC(=O)N[C@@H](CC(N)=O)C(=O)O is reported as 21.8 µM (ATCC 29212; highest concentration 50 µM).
CC[C@@H](C)[C@@H](NC(=O)[C@@H](CC(C)C)NC(=O)[C@@H](CCCNC(=N)N)NC(=O)[C@@H](CCCNC(=N)N)NC(=O)[C@@H](CCCNC(=N)N)NC(=O)[C@@H](CCCNC(=N)N)NC(=O)[C@@H](CC(C)C)NC(=O)[C@H](NC(=O)[C@H](NC(=O)[C@H](NC(=O)[C@@H](CC(C)C)NC(=O)[C@@H](CCCNC(=N)N)NC(=O)[C@@H](CO)NC(=O)[C@H](N)CO)C(C)C)[C@H](C)CC)[C@H](C)CC)C(=O)N[C@H](CO)C(=O)N[C@H](CCCNC(=N)N)C(=O)N[C@H](CCCNC(=N)N)C(=O)N[C@H](CCCNC(=N)N)C(=O)N[C@H](CCCNC(=N)N)C(N)=O gave an MIC of 1 µM (broth microdilution; ATCC 29212; highest value reported).
With CN[C@H](CC(C)C)C(=O)N[C@H]1C(=O)N[C@@H](CC(N)=O)C(=O)N[C@H]2C(=O)N[C@H]3C(=O)N[C@H](C(=O)N[C@H](C(=O)O)c4cc(O)cc(O)c4-c4cc3ccc4O)[C@H](O)c3ccc(c(Cl)c3)Oc3cc2cc(c3O[C@@H]2O[C@H](CO)[C@@H](O)[C@H](O)[C@H]2O[C@H]2C[C@](C)(N)[C@H](O)[C@H](C)O2)Oc2ccc(cc2Cl)[C@H]1O the MIC was 32 µg/mL (broth microdilution; vancomycin-resistant, tryptic soy broth; 20 to 24 h, 37 °C, 0.002% polysorbate 80).
For CC(C)C[C@H](NC(=O)[C@@H](NC(=O)[C@H](CCCNC(=N)N)NC(=O)[C@H](CCC(N)=O)NC(=O)[C@H](Cc1ccccc1)NC(=O)[C@H](Cc1ccc(O)cc1)NC(=O)[C@H](CC(N)=O)NC(=O)[C@H](Cc1c[nH]c2ccccc12)NC(=O)[C@@H](NC(=O)[C@H](CCCNC(=N)N)NC(=O)[C@H](CCCCN)NC(=O)[C@@H](N)Cc1ccccc1)C(C)C)C(C)C)C(=O)N[C@H](C(=O)N[C@@H](CCCCN)C(=O)N[C@@H](CCCCN)C(N)=O)C(C)C, the MIC was 50 µM (broth dilution; KCTC 3511).
The MIC of CC(C)C[C@@H](NC(=O)[C@H](C)NC(=O)CNC(=O)[C@@H](NC=O)C(C)C)C(=O)N[C@@H](C)C(=O)N[C@@H](C(=O)N[C@H](C(=O)N[C@@H](C(=O)N[C@@H](Cc1c[nH]c2ccccc12)C(=O)N[C@H](CC(C)C)C(=O)N[C@@H](Cc1cc2ccccc2[nH]1)C(=O)N[C@H](CC(C)C)C(=O)N[C@@H](Cc1c[nH]c2ccccc12)C(=O)N[C@H](CC(C)C)C(=O)N[C@@H](Cc1c[nH]c2ccccc12)C(=O)NCCO)C(C)C)C(C)C)C(C)C is reported as 0.13 µM (broth microdilution; JCM 5803).
For CCCCCCCCCCCCN(C)C(=O)CP(=O)(O)O, the MIC was 200 µg/mL (ATCC 33186).
With CN[C@H](CC(C)C)C(=O)N[C@H]1C(=O)N[C@@H](CC(N)=O)C(=O)N[C@H]2C(=O)N[C@H]3C(=O)N[C@H](C(=O)N[C@H](C(=O)O)c4cc(O)cc(O)c4-c4cc3ccc4O)[C@H](O)c3ccc(c(Cl)c3)Oc3cc2cc(c3O[C@@H]2O[C@H](CO)[C@@H](O)[C@H](O)[C@H]2O[C@H]2C[C@](C)(N)[C@H](O)[C@H](C)O2)Oc2ccc(cc2Cl)[C@H]1O the MIC was 2 µg/mL (vancomycin-susceptible).
CCCNc1nc(Cl)c2c(c1O)C(=O)C1=C(O)[C@]3(O)C(=O)C(C(N)=O)=C(O)[C@@H](N(C)C)[C@@H]3C[C@@H]1C2.Cl.Cl.Cl gave an MIC of 2 µg/mL (tet(M)-carrying).
CC(C)C[C@@H](NC(=O)[C@H](C)NC(=O)CNC(=O)[C@@H](NC=O)C(C)C)C(=O)N[C@@H](C)C(=O)N[C@@H](C(=O)N[C@H](C(=O)N[C@@H](C(=O)N[C@@H](Cc1c[nH]c2ccccc12)C(=O)N[C@H](CC(C)C)C(=O)N[C@@H](Cc1ccc2[nH]ccc2c1)C(=O)N[C@H](CC(C)C)C(=O)N[C@@H](Cc1c[nH]c2ccccc12)C(=O)N[C@@H](C(=O)N[C@@H](Cc1c[nH]c2ccccc12)C(=O)NCCO)C(C)C)[C@H](C)O)C(C)C)C(C)C has an MIC of 1.1 µM (broth microdilution; JCM 5803).
Cc1ncc(O)c2c1C[C@H]1C[C@H]3[C@H](N(C)C)C(O)=C(C(N)=O)C(=O)[C@@]3(O)C(O)=C1C2=O.Cl.Cl gave an MIC of > 32 µg/mL (tet(M)-carrying).
For COc1ccc2cc1Oc1cc(ccc1OC)CCC(N[C@@H]1CCCc3ccccc31)CCCC2 (stereo partly shown), the MIC was > 100 µg/mL (broth microdilution; ATCC 33186).
With CN(C)[C@@H]1C(O)=C(C(N)=O)C(=O)[C@@]2(O)C(O)=C3C(=O)c4c(O)cccc4[C@@](C)(O)[C@H]3C[C@@H]12 the MIC was > 32 µg/mL (tet(M)-carrying).
CC[C@H](C)[C@H](NC(=O)CN)C(=O)NCC(=O)N[C@@H](CCCCN)C(=O)N[C@@H](Cc1ccccc1)C(=O)N[C@@H](CC(C)C)C(=O)N[C@@H](CCCCN)C(=O)N[C@@H](CCCCN)C(=O)N[C@@H](C)C(=O)N[C@@H](CCCCN)C(=O)N[C@@H](CCCCN)C(=O)N[C@@H](Cc1ccccc1)C(=O)NCC(=O)N[C@@H](CCCCN)C(=O)N[C@@H](C)C(=O)N[C@@H](Cc1ccccc1)C(=O)N[C@H](C(=O)N[C@@H](CCCCN)C(=O)N[C@H](C(=O)N[C@@H](CC(C)C)C(=O)N[C@@H](CCCCN)C(=O)N[C@@H](CCCCN)C(N)=O)[C@@H](C)CC)C(C)C has an MIC of 6.3 µM (broth dilution; KCTC 3511).
With CC[C@H](C)[C@H](NC(=O)[C@H](CCCCN)NC(=O)[C@H](CCCCN)NC(=O)[C@H](CCCCN)NC(=O)[C@H](CCCCN)NC(=O)[C@H](CCCCN)NC(=O)[C@@H](N)CCCCN)C(=O)N[C@@H](CO)C(=O)N[C@@H](Cc1ccccc1)C(=O)N[C@@H](CC(C)C)C(=O)NCC(=O)N[C@@H](CO)C(=O)N[C@@H](CCCCN)C(=O)N[C@H](C(=O)N[C@H](C(=O)N[C@H](C(=O)N[C@@H](CC(C)C)C(=O)N[C@@H](CC(C)C)C(=O)N[C@@H](CCCCN)C(=O)N[C@@H](CCCNC(=N)N)C(N)=O)C(C)C)C(C)C)C(C)C the MIC was 16 µM (broth microdilution; ATCC 29212; highest value reported).
Cc1ncc2c(c1O)C(=O)C1=C(O)[C@]3(O)C(=O)C(C(N)=O)=C(O)[C@@H](N(C)C)[C@@H]3C[C@@H]1C2.Cl.Cl has an MIC of > 32 µg/mL (tet(M)-carrying).

Some of these lines once more:
For CC[C@H](C)[C@H](NC(=O)[C@H](CCCCN)NC(=O)[C@@H](NC(=O)[C@H](Cc1ccc(O)cc1)NC(=O)[C@H](CCCCN)NC(=O)[C@H](CCCCN)NC(=O)CNC(=O)[C@H](CCCCN)NC(=O)[C@@H](NC(=O)[C@H](C)NC(=O)[C@H](CC(C)C)NC(=O)[C@H](Cc1c[nH]c2ccccc12)NC(=O)CNC(=O)[C@@H](NC(=O)[C@H](Cc1ccccc1)NC(=O)[C@H](CCCCN)NC(=O)[C@H](CC(C)C)NC(=O)[C@H](Cc1ccccc1)NC(=O)[C@H](C)NC(=O)CNC(=O)[C@@H](N)CCSC)C(C)C)[C@@H](C)O)C(C)C)C(=O)N[C@@H](C)C(=O)N[C@@H](Cc1c[nH]c2ccccc12)C(=O)N[C@@H](CC(=O)O)C(=O)N[C@@H](Cc1c[nH]cn1)C(=O)N[C@@H](CCCCN)C(=O)NCC(=O)N[C@H](C(=O)N[C@H](C(=O)N[C@@H](CCSC)C(=O)N[C@@H](CCCCN)C(=O)N[C@@H](Cc1c[nH]c2ccccc12)C(=O)N[C@@H](CC(C)C)C(=O)N[C@@H](CC(N)=O)C(=O)N[C@@H](C)C(=O)NCC(=O)N[C@@H](CCC(N)=O)C(=O)N[C@H](C(=O)N[C@@H](Cc1ccccc1)C(=O)N[C@H](C(=O)N[C@@H](Cc1c[nH]c2ccccc12)C(=O)N[C@H](C(=O)N[C@@H](Cc1ccc(O)cc1)C(=O)N[C@@H](CCC(=O)O)C(=O)N[C@@H](CCC(N)=O)C(=O)N[C@H](C(=O)N[C@@H](CCCCN)C(=O)N[C@@H](CCCCN)C(=O)N[C@@H](CC(C)C)C(=O)N[C@@H](Cc1c[nH]c2ccccc12)C(=O)N[C@H](C(=O)O)[C@@H](C)O)[C@@H](C)CC)C(C)C)[C@@H](C)O)[C@@H](C)O)[C@@H](C)CC)[C@@H](C)O, the MIC was 3.9 µg/mL (broth microdilution; 37 °C, MRS medium).
The MIC of NCCCC1CN(c2ccc3c(n2)NC(=O)CO3)C(=O)O1 (stereo not shown) is reported as 160 µg/mL (ATCC 29212).
